Experimental data gathered from unrelated publications.
Lines come from different studies, so protocols differ.
Sample: plasma
Route: oral

N#Cc1ccc(-c2cnc3ccc(-c4ccc(C(=O)N5CCOCC5)cc4)cn23)cc1
Tmax (human; 10 mg, single dose, fed, healthy volunteers): 4.62 h

COc1cccc(-c2ccc(NC(=O)C3=C(C(=O)O)CCC3)c(F)c2)c1
Tmax (male human; 10 mg, single dose, fasted, healthy volunteers): 3.17 h

C[C@H](N)C(=O)N1C[C@H](CCCB(O)O)[C@](N)(C(=O)O)C1
Tmax (human; 150 mg twice daily, multiple doses, patients): 2 h

C#C[C@]1(CO)O[C@@H](n2cnc3c(N)nc(F)nc32)C[C@@H]1O
Tmax (human; 15 mg, single dose, fasted): 0.5 h

CCCOc1ccc([C@H]2CNC(=O)N2c2ccc3[nH]cnc3c2)cc1
Tmax (human; 100 mg, single dose, fasted): 0.5 h

O=C(O)COC[C@H]1CC[C@H](COC(=O)N(c2ccccc2)c2ccc(Cl)cc2)CC1
Tmax (human; 30 µg, multiple doses, twice daily, steady state): 1 h

CNc1nc(Nc2ccc(-n3cnc(C)n3)c(OC)c2)nc2c1CC[C@H]2c1ccc(F)cc1
Tmax (human; 300 mg, fed, healthy volunteers): 5 h

C[C@H]1CO[C@@H]2Cn3cc(C(=O)NCc4ccc(F)cc4F)c(=O)c(O)c3C(=O)N12
Tmax (human; 30 mg, single dose, fasted): 3 h

CN(C)C/C=C/C(=O)Nc1cc2c(Nc3ccc(F)c(Cl)c3)ncnc2cc1O[C@H]1CCOC1
Tmax (human; 20 mg, multiple doses, once daily, steady state, patients): 5 h

COc1cc2ncnc(Nc3ccc(F)c(Cl)c3)c2cc1OCCCN1CCOCC1
Tmax (human; 250 mg): 4.6 h

C=C(C)[C@@H]1CC[C@]2(NCCN3CCS(=O)(=O)CC3)CC[C@]3(C)[C@H](CC[C@@H]4[C@@]5(C)CC=C(C6=CC[C@@](CF)(C(=O)O)CC6)C(C)(C)[C@@H]5CC[C@]43C)[C@@H]12
Tmax (human; 80 mg, multiple doses, once daily, patients): 4.58 h

Nc1cc(F)ccc1NC(=O)c1ccc(CNC(=O)/C=C/c2cccnc2)cc1
Tmax (human; 30 mg, patients): 3.98 h

C[C@@H](N)c1cc(Cl)ccc1Cn1c(=S)[nH]c(=O)c2[nH]ccc21
Tmax (human; 10 mg, multiple doses, once daily, healthy volunteers): 1.5 h

Nc1ccc(-c2nc([C@H]3CCc4cc(-c5cc(Cl)ccc5-n5cnnn5)cc(=O)n43)c(F)[nH]2)c(F)n1
Tmax (human; 150 mg, single dose, fasted, healthy volunteers): 4 h

O=C(c1nc2n(n1)[C@H](c1ccccc1)C[C@@H]2F)C1CC1
Tmax (human; 75 mg, single dose, fasted, healthy volunteers): 3 h

O=C(c1cccnc1-c1ccncc1)N1CCC(O)(Cc2ccccc2)CC1
Tmax (human; 300 mg, multiple doses, once daily, healthy volunteers): 0.33 h

CC(C)n1nc(-c2ccc3oc(N)nc3c2)c2c(N)ncnc21
Tmax (human; 20 mg, multiple doses, patients): 2.6 h

CS(=O)(=O)n1cc2c(n1)CN([C@H]1CO[C@H](c3cc(F)ccc3F)[C@@H](N)C1)C2
Tmax (male human; 10 mg, single dose, fed): 4 h

CC(=O)N[C@H]1CC[C@H](NC(=O)CN2CCN(c3nncc(-c4ccc(C)cc4)n3)CC2)CC1
Tmax (male human; 100 mg, single dose, fasted, healthy volunteers): 1.5 h

CCOc1ccc(Cc2cc([C@]34OC[C@](CO)(O3)[C@@H](O)[C@H](O)[C@H]4O)ccc2Cl)cc1
Tmax (human; 15 mg, single dose): 1 h

Nc1ncc(-c2cnn(CCO)c2)c2scc(-c3ccc(NC(=O)Nc4cccc(F)c4)cc3)c12
Tmax (human; 240 mg, patients): 3.4 h

CNC(=O)c1ccc(-c2cnc3ncc(Cc4ccc5ncccc5c4)n3n2)cc1F
Tmax (human; 200 mg twice daily, multiple doses, steady state, patients): 1.92 h

CN(C)Cc1c(C(=O)NCCOc2ccc(C(=O)NO)cc2)oc2ccccc12
Tmax (human; 60 mg, single dose, patients): 1 h

O=C(O)C[C@H](O)C[C@H](O)/C=C/c1c(C2CC2)nc2ccccc2c1-c1ccc(F)cc1
Tmax (human; 2 mg, multiple doses, once daily): 0.68 h

CC(C)(Sc1ccncc1-c1ccc(C#N)c2ccccc12)C(=O)O
Tmax (male human; 10 mg, single dose, fasted): 1.75 h

CC#CC(=O)N[C@H]1CCCN(c2c(F)cc(C(N)=O)c3[nH]c(C)c(C)c23)C1
Tmax (human; 0.3 mg, single dose): 0.5 h

CS(=O)(=O)n1cc2c(n1)CN([C@H]1CO[C@H](c3cc(F)ccc3F)[C@@H](N)C1)C2
Tmax (male human; 100 mg, single dose, fasted): 2 h

C[C@@H]1CCC[C@H](n2cnc(-c3cc(Cl)ccc3-n3cc(Cl)nn3)cc2=O)c2cc(ccn2)-c2c(cnn2C(F)F)NC1=O
Tmax (human; 200 mg, single dose, fasted, healthy volunteers): 3 h

CNCc1ccc(-c2[nH]c3cc(F)cc4c3c2CCNC4=O)cc1
Tmax (human; 160 mg, multiple doses, once daily, steady state, patients): 3.75 h

Repeated from above:
O=C(c1cccnc1-c1ccncc1)N1CCC(O)(Cc2ccccc2)CC1
Tmax (human; 300 mg, multiple doses, once daily, healthy volunteers): 0.33 h

C[C@@H](N)c1cc(Cl)ccc1Cn1c(=S)[nH]c(=O)c2[nH]ccc21
Tmax (human; 10 mg, multiple doses, once daily, healthy volunteers): 1.5 h
